Published values gathered from unrelated publications.
Each line is one published result; not all experiments were run side by side. ± marks the error that the study gave.
U2AF2: U2AF2 148-342 (Homo sapiens, UniProt P26368)
Chain of UniProt P26368 (whole entry, looked up): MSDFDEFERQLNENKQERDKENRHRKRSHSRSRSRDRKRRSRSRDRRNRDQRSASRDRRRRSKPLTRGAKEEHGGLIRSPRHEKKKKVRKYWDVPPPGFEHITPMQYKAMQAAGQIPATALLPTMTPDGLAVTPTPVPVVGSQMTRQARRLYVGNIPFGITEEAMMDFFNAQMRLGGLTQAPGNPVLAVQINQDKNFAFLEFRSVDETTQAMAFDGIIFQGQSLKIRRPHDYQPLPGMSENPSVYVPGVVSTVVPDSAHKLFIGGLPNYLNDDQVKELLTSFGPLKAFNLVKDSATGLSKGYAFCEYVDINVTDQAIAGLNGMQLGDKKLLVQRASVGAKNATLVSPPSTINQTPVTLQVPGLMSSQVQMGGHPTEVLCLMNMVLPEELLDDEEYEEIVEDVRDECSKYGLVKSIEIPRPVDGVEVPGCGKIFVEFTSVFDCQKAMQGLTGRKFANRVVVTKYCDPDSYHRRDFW
B1: SCO6712 V290N/Y229F (Streptomyces coelicolor, UniProt Q9XAL8); chain AKGITARTAPAGGEVRHLKMYAEKLADGQMGYGFEKGKASVPGPLIEVNEGDTLHIEFTNTMDVRASLHVHGLDYEISSDGTAMNKSDVEPGGTRTYTWRTHKPGRRDDGTWRPGSAGYWHYHDHVVGTEHGTGGIRNGLYGPVIVRRKGDVLPDATHTIVFNDMTINNRKPHTGPDFEATVGDRVEIVMITHGEFYHTFHMHGHRWADNRTGILTGPDDPSRVIDNKITGPADSFGFQIIAGEGVGAGAWMYHCHNQSHSDMGMVGLFLVKKPDGTIPGYEPHEHGGATAKSGESGEPTGGAAAHEHEH
B2: aspC A106G/A17N/A218G/A278L/A281T/A8Q/D18E/F210I/F212I/F350Y/G15S/G249S/I187A/I279A/I29V/I33V/I341V/I5L/I68L/I71L/L46M/M321L/M380L/N285S/N30D/N64T/S129T/S135A/S273G/S351L/T100S/V125I/V136I/V375I/Y244C (Escherichia coli, UniProt P00509); chain MFENLTAQPADPILSLNELFRADERPGKVDLGVGVYKDETGKTPVMTSVKKAEQYLLENETTKTYLGLDGLPEFGRCTQELLFGKGSALINDKRARTAQSPGGTGGLRVAADFLAKNTSVKRVWISNPTWPNHKAIFNSAGLEVREYAYYDAENHTLDFDALINSLNEAQAGDVVLFHGCCHNPTGADPTLEQWQTLAQLSVEKGWLPLIDIAYQGFGRGLEEDAEGLRAFAAMHKELIVASSCSKNFSLYNERVGACTLVAADSETVDRAFGQMKALARTNYSSPPAHGASVVATILSNDALRAIWEQELTDMRQRIQRLRQLFVNTLQEKGANRDFSFVIKQNGMFSYLGLTKEQVLRLREEFGVYAVASGRINVAGLTPDNMAPLCEAIVAVL
B3: enzyme H130A (Salinispora arenicola, UniProt A8M783); chain MASTPWISFTTDYGLADGFVAACHGVLARLAPTARVIDVTHLVPPGDVRRGAAVLAQTVPYLPAAVHVAVVDPGVGTARRAIALTAGNGLLVGPDNGLLLDAATALGGVDAAVELTNPDWLGARMSATFAGRDVFAPVAARLALGAPLADAGPAVEPGALVRLPTPLVQPETDGFTAEVLTVDHFGNVQLAATGALLESLPRSLRVAHRPAVHARTFDDAPPGGLLVHVDSAGLVAVAVNGGRAADLLAVTPGDQLRVTAG
B4: enzyme S252E/S281E/S285E/S287E (Schizosaccharomyces pombe, UniProt P78804); chain MSTPYEPEFQQAYKEIVGSIESSKLFEVHPELKRVLPIISIPERVLEFRVTWEDDKGNCRVNTGYRVQFNSALGPYKGGLRFHPSVNLSILKFLGFEQIFKNALTGLPMGGGKGGSDFDPKGKSDNEIRRFSQAFMRQLFRYIGPQTDVPAGDIGVTGFVVMHMFGEYKRLRNEYSGVVTGKHMLTGGSNIRPEATGYGVVYYVKHMIEHRTKGAETLKGKRVAISGSGNVAQYAALKCIQEGAIVKSISDEKGVLIAKTAEGLVPEEIHEIMALKEKRAEIADEAELCKKHHYIAGARPWTNVGEIDIALPCATQNEVSGEEAAALIKQGCRYVAEGSNMGSSAEAVEVFEKSRASGEGCWLAPGKAANAGGVAVSGLEMAQNAQFSTWTHAEVDAKLAGIMQNIFEQSTDVASKYCDSGSNNIPSLVDGANIAGFLKVATAMQAVGDWW
B5: ackA (Escherichia coli, UniProt P0A6A3); chain MSSKLVLVLNCGSSSLKFAIIDAVNGEEYLSGLAECFHLPEARIKWKMDGNKQEAALGAGAAHSEALNFIVNTILAQKPELSAQLTAIGHRIVHGGEKYTSSVVIDESVIQGIKDAASFAPLHNPAHLIGIEEALKSFPQLKDKNVAVFDTAFHQTMPEESYLYALPYNLYKEHGIRRYGAHGTSHFYVTQEAAKMLNKPVEELNIITCHLGNGGSVSAIRNGKCVDTSMGLTPLEGLVMGTRSGDIDPAIIFHLHDTLGMSVDAINKLLTKESGLLGLTEVTSDCRYVEDNYATKEDAKRAMDVYCHRLAKYIGAYTALMDGRLDAVVFTGGIGENAAMVRELSLGKLGVLGFEVDHERNLAARFGKSGFINKEGTRPAVVIPTNEELVIAQDASRLTA
B6: CYP4F3 A27G/C46R/I34V/M14V/R49Q/W12G (Homo sapiens, UniProt Q08477); chain MALLLAVFLLGPVAASPWLLLLLVGGSWLLARVLAWTYTFYDNCRRLQCFPQPPKRNWFLGHLGLVTPTEQGMRVLTQLVATYPQGFKVWMGPIFPVIRFCHPNIIRSVINASAAIVPKDKVFYSFLKPWLGDGLLLSAGEKWSRHRRMLTPAFHFNILKPYMKIFNESVNIMHAKWQLLASEGSARLDMFEHISLMTLDSLQKCVFSFDSHCQEKPSEYIAAILELSALVTKRHQQILLYIDFLYYLTPDGQRFRRACRLVHDFTDAVIQERRRTLPSQGVDDFLQAKAKSKTLDFIDVLLLSKDEDGKKLSDEDIRAEADTFMFEGHDTTASGLSWVLYHLAKHPEYQERCRQEVQELLKDREPKEIEWDDLAQLPFLTMCIKESLRLHPPVPAVSRCCTQDIVLPDGRVIPKGIICLISVFGTHHNPAVWPDPEVYDPFRFDPKNIKERSPLAFIPFSAGPRNCIGQAFAMAEMKVVLGLTLLRFRVLPDHTEPRRKPELVLRAEGGLWLRVEPLS
Chain of UniProt Q00535 (whole entry, looked up): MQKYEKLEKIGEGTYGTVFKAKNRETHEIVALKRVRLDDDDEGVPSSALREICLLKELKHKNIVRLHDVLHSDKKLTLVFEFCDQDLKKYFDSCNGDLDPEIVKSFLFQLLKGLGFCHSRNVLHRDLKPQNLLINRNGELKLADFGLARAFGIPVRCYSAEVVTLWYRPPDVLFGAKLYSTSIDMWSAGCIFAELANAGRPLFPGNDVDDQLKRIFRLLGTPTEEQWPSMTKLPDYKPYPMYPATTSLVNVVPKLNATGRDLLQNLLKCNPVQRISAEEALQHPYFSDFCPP
Chain of UniProt O31662 (whole entry, looked up): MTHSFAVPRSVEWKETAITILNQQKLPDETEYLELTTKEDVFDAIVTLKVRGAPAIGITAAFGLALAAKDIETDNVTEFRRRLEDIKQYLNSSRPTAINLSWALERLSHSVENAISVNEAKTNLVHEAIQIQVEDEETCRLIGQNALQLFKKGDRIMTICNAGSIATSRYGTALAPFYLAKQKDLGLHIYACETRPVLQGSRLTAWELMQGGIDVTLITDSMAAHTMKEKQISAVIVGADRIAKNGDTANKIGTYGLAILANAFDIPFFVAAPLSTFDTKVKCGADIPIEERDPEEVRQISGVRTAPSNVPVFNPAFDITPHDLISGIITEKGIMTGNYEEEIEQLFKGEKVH
Chain of UniProt P09546 (whole entry, looked up): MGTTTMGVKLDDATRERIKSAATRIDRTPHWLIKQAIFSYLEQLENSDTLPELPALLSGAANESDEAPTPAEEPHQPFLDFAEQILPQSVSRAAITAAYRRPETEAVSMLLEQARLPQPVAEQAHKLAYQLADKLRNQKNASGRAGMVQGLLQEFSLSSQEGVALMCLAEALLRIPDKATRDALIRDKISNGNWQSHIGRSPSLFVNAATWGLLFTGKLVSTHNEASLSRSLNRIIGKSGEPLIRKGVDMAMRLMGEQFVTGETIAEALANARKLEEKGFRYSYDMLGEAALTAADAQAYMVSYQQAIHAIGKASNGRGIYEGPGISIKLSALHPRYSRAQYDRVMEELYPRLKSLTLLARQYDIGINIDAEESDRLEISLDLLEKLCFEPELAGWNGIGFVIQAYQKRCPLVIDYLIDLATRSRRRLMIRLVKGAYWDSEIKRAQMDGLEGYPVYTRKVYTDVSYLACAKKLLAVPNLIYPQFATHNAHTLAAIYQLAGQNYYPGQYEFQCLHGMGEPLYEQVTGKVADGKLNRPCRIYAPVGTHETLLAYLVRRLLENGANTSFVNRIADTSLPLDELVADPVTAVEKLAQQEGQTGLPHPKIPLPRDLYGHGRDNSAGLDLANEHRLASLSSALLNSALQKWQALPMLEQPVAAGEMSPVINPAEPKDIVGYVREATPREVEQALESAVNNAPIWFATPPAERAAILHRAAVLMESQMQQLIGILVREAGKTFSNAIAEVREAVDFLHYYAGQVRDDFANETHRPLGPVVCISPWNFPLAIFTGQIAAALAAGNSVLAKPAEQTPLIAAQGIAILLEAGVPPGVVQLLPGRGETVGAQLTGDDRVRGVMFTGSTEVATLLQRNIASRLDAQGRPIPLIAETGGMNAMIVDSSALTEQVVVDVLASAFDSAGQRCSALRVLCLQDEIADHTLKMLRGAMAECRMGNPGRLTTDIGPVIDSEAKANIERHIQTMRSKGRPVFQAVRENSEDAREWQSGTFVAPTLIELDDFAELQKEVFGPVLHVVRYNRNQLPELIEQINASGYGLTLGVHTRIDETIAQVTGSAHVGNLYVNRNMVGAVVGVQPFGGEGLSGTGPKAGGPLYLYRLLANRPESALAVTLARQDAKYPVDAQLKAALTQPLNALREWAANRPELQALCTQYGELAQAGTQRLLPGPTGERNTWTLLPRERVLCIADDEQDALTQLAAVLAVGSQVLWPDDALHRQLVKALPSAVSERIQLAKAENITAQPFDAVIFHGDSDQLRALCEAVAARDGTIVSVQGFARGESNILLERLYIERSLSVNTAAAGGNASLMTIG
Chain of UniProt Q96C36 (whole entry, unmodified, looked up): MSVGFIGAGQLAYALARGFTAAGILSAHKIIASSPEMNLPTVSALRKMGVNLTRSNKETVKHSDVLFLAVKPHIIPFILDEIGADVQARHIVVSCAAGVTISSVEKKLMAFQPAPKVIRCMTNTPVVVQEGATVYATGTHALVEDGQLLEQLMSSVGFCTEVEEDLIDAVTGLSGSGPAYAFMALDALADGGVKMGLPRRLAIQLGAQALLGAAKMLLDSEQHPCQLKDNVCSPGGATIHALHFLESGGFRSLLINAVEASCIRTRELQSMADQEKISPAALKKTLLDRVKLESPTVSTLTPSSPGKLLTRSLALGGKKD

Substance = B1 (SCO6712 V290N/Y229F); target or system = CCn1c(=NN=c2sc3cc(S(=O)(=O)O)ccc3n2CC)sc2cc(S(=O)(=O)O)ccc21; test = steady-state kinetics; setting = pH 7, 37 °C, NaCl 150 mM, together with: O2 cosubstrate; measurement = kcat/Km; result = 1800 ± 200 M⁻¹ s⁻¹
Substance = mtnA (Bacillus subtilis, UniProt O31662); target or system = O=P(O)(O)O[C@H]1O[C@H](CO)[C@@H](O)[C@H]1O; test = steady-state kinetics; setting = pH 7.5, 25 °C; measurement = kcat/Km; result = 9.27 M⁻¹ s⁻¹
Substance = B2; target or system = N[C@@H](Cc1ccccc1)C(=O)O; test = steady-state kinetics; setting = pH 7.5, 25 °C, together with: PMP 20 µM; measurement = kcat/Km; result = 200 M⁻¹ s⁻¹
Substance = B3 (enzyme H130A); target or system = C[S+](CC[C@H](N)C(=O)O)C[C@H]1O[C@@H](n2cnc3c(N)ncnc32)[C@H](O)[C@@H]1O; test = steady-state kinetics; setting = pH 7.9, 37 °C, apparent, together with: 1-200 µM SAM; measurement = kcat/Km; result = 1900 M⁻¹ s⁻¹
Substance = B4 (enzyme S252E/S281E/S285E/S287E); target or system = NC(=O)C1=CN([C@@H]2O[C@H](COP(=O)(O)OP(=O)(O)OC[C@H]3O[C@@H](n4cnc5c(N)ncnc54)[C@H](OP(=O)(O)O)[C@@H]3O)[C@@H](O)[C@H]2O)C=CC1; test = steady-state kinetics; setting = pH 7, 30 °C, apparent; measurement = kcat/Km; result = 100000 ± 10000 M⁻¹ s⁻¹
Substance = human WDHD1; target or system = CYB5R4 knockout human cells; test = PP4 interaction, 3xFLAG-PP4C IP-MS; setting = concentration not given; how to read = reference: CYB5R4 KO over parental; measurement = log2 fold change; result = 0.5
Substance = enzyme (Saccharina japonica, UniProt A0A097IUE3); target or system = Nc1ncnc2c1ncn2[C@@H]1O[C@H](COP(=O)(O)OP(=O)(O)O)[C@@H](O)[C@H]1O; test = steady-state kinetics; setting = pH 6.5, 25 °C, together with: 16 mM PEP; measurement = kcat/Km; result = 290000 M⁻¹ s⁻¹
Substance = enzyme (UniProt F0RRL2); target or system = OC[C@H]1O[C@@](CO)(O[C@H]2O[C@H](CO)[C@@H](O)[C@H](O)[C@H]2O)[C@@H](O)[C@@H]1O; test = steady-state kinetics; setting = pH 5.5, 37 °C, apparent; measurement = kcat/Km; result = 1800 M⁻¹ s⁻¹
Substance = PYCR2 (Homo sapiens, UniProt Q96C36); target or system = O=C(O)[C@@H]1CCC=N1; test = steady-state kinetics; setting = pH 7.5, 37 °C, apparent, together with: NADH 500 µM; measurement = kcat/Km; result = 41000 ± 2000 M⁻¹ s⁻¹
Substance = putA (Escherichia coli, UniProt P09546); target or system = O=C(O)[C@@H]1CCCN1; test = steady-state kinetics; setting = pH 7.4, together with: CoQ1; measurement = kcat/Km; result = 70 ± 3.8 M⁻¹ s⁻¹
Substance = B5 (ackA); target or system = Nc1ncnc2c1ncn2[C@@H]1O[C@H](COP(=O)(O)OP(=O)(O)OP(=O)(O)O)[C@@H](O)[C@H]1O; test = steady-state kinetics; setting = pH 7.6, 25 °C, together with: acetate; measurement = kcat/Km; result = 1.2e+06 ± 100000 M⁻¹ s⁻¹
Substance = B6; target or system = CCCCC/C=C\C[C@@H](O)/C=C/C=C/C=C\[C@@H](O)CCCC(=O)O; test = steady-state kinetics; setting = pH 7.4, together with: LTB4; measurement = kcat/Km; result = 50 M⁻¹ s⁻¹
Substance = acsA (Pseudomonas chlororaphis, UniProt Q5CD72); target or system = CCCC(=O)O; test = steady-state kinetics; setting = pH 7; measurement = kcat/Km; result = 1170 ± 333 M⁻¹ s⁻¹
Substance = HNL C81L/E79H/G176S/H103V/K236M/N104A/S105A/T11G/V106F (Hevea brasiliensis); target or system = CC(=O)Oc1ccc([N+](=O)[O-])cc1; test = steady-state kinetics; setting = pH 7.2, 22 °C; measurement = kcat/Km; result = 383 M⁻¹ s⁻¹
Substance = human VDAC1; target or system = CYB5R4 knockout human cells; test = PP4 interaction, 3xFLAG-PP4C IP-MS; setting = concentration not given; how to read = reference: CYB5R4 KO over parental; measurement = log2 fold change; result = -0.07
Substance = AUAGUUUAU (ssRNA); target or system = U2AF2; test = sequencing of bound RNA; system = RNA; setting = motif only; measurement = Kd; result = 4.22 µM
Substance = enzyme (UniProt A0A063Y6V3); target or system = NC(=O)C1=CN([C@@H]2O[C@H](COP(=O)(O)OP(=O)(O)OC[C@H]3O[C@@H](n4cnc5c(N)ncnc54)[C@H](O)[C@@H]3O)[C@@H](O)[C@H]2O)C=CC1; test = steady-state kinetics; setting = pH 7, 30 °C, cofactor varied; measurement = kcat/Km; result = 10400 M⁻¹ s⁻¹
Substance = KEAFWNRCLSVINLMSSKMLQINA; target or system = Cyclin-dependent kinase 5, with p25 (CDK5, Homo sapiens, UniProt Q00535); test = phosphotransferase activity, radiometric; system = peptide; setting = concentration not given, 10% DMSO, together with: histone substrate; how to read = reference: p5-WT peptide; measurement = activity change; result = 23%
Substance = UUUAGUUUU (ssRNA); target or system = U2AF2; test = sequencing of bound RNA; system = RNA; setting = motif only; measurement = Kd; result = 11.2 µM

A few entries again:
Substance = B1 (SCO6712 V290N/Y229F); target or system = CCn1c(=NN=c2sc3cc(S(=O)(=O)O)ccc3n2CC)sc2cc(S(=O)(=O)O)ccc21; test = steady-state kinetics; setting = pH 7, 37 °C, NaCl 150 mM, together with: O2 cosubstrate; measurement = kcat/Km; result = 1800 ± 200 M⁻¹ s⁻¹
Substance = mtnA (Bacillus subtilis, UniProt O31662); target or system = O=P(O)(O)O[C@H]1O[C@H](CO)[C@@H](O)[C@H]1O; test = steady-state kinetics; setting = pH 7.5, 25 °C; measurement = kcat/Km; result = 9.27 M⁻¹ s⁻¹
Substance = B2; target or system = N[C@@H](Cc1ccccc1)C(=O)O; test = steady-state kinetics; setting = pH 7.5, 25 °C, together with: PMP 20 µM; measurement = kcat/Km; result = 200 M⁻¹ s⁻¹
